Measured values pooled from the literature.
± marks the error that the study gave. Values after ≈ are worked out from the molar mass of the structure shown.
Organism: Trypanosoma brucei

SMILES	test	test system	conditions	how to read	quantity	value
CN(C(=O)Cc1ccc(Cl)c(Cl)c1)[C@@H](CN1CCCC1)c1ccccc1	parasite growth		72 h		EC50	5.4 µM
OC[C@H]1O[C@@H](SSCc2cccc3c(CSS[C@@H]4O[C@H](CO)[C@H](O)[C@H](O)[C@H]4O)cccc23)[C@H](O)[C@@H](O)[C@H]1O	parasite growth, flow cytometry		5 µM, 24 h		viability	91.9%
C=CC(C)(C)c1c(O)cc2c(c1O)C(=O)CC(c1ccccc1)O2 (centres unmarked)	resazurin viability	multidrug-resistant B48		reference: B48 over s427 wild type	resistance factor	1.23
O=C(Cc1ccc(Cl)c(Cl)c1)N1CCCCC1CN1CCCC1 (centres unmarked)	parasite growth		72 h		EC50	9.9 µM
OC[C@H]1O[C@@H]([Se][Se][C@@H]2O[C@H](CO)[C@H](O)[C@H](O)[C@H]2O)[C@H](O)[C@@H](O)[C@H]1O	parasite growth, flow cytometry		5 µM, 24 h		viability	96.4%
O=C(Cc1ccc(Cl)c(Cl)c1)NCCN1CCCC1	parasite growth		72 h		EC50	16.3 µM
CC(C)=CCC/C(C)=C/CC/C(C)=C/CNCCOC1C2CC3CC(C2)CC1C3 (centres unmarked)		bloodstream form	72 h		IC50	0.75 ± 0.1 µg/mL (≈ 1.88 µM)
OC[C@H]1O[C@@H]([Se]Cc2ccc(C[Se][C@@H]3O[C@H](CO)[C@H](O)[C@H](O)[C@H]3O)cc2)[C@H](O)[C@@H](O)[C@H]1O	parasite growth, flow cytometry		5 µM, 24 h		viability	100%
CC(C)(C)c1ccc(C(=O)Nc2cc(Cl)c(Br)cc2C(=O)O)cc1	cell growth	bloodstream form	10 µM		inhibition	6.9 ± 3%
Cc1nn(-c2ccccc2)nc1CNS(=O)(=O)c1cccs1	parasite growth				EC50	32 µM
CC(C)=CCC/C(C)=C/CNCCOC1C2CC3CC(C2)CC1C3 (centres unmarked)		bloodstream form	72 h		IC50	0.26 ± 0.07 µg/mL (≈ 0.784 µM)
O=C(Cc1ccc(Cl)c(Cl)c1)N(Cc1ccccc1)[C@@H]1CCCC[C@H]1N1CCCC1	parasite growth				EC50	2.4 µM
Cc1ccc(-c2nc3c(=O)n(C)c(=O)nc-3n(C)n2)cc1	parasite growth, resazurin		73 h		EC50	1.22 µM
OC[C@H]1O[C@@H](O[C@H]2[C@H](O)[C@@H](O)[C@H](SSCc3ccc(CSS[C@@H]4O[C@H](CO)[C@@H](O[C@@H]5O[C@H](CO)[C@H](O)[C@H](O)[C@H]5O)[C@H](O)[C@H]4O)cc3)O[C@@H]2CO)[C@H](O)[C@@H](O)[C@H]1O	parasite growth, flow cytometry		5 µM, 24 h		viability	93.4%

A few entries again:
SMILES	test	test system	conditions	how to read	quantity	value
O=C(Cc1ccc(Cl)c(Cl)c1)N1CCCCC1CN1CCCC1 (centres unmarked)	parasite growth		72 h		EC50	9.9 µM
OC[C@H]1O[C@@H]([Se][Se][C@@H]2O[C@H](CO)[C@H](O)[C@H](O)[C@H]2O)[C@H](O)[C@@H](O)[C@H]1O	parasite growth, flow cytometry		5 µM, 24 h		viability	96.4%
